Experimental data collected from several papers.
Every numbered part comes from another study and shows a few of its results, in no order. Changes are numbered by the printed parent chain.

Block 1
Target: Ras GTPase-activating protein-binding protein 1, full length (G3BP1, Homo sapiens, UniProt Q13283)
Sequence of UniProt Q13283 (whole entry, looked up): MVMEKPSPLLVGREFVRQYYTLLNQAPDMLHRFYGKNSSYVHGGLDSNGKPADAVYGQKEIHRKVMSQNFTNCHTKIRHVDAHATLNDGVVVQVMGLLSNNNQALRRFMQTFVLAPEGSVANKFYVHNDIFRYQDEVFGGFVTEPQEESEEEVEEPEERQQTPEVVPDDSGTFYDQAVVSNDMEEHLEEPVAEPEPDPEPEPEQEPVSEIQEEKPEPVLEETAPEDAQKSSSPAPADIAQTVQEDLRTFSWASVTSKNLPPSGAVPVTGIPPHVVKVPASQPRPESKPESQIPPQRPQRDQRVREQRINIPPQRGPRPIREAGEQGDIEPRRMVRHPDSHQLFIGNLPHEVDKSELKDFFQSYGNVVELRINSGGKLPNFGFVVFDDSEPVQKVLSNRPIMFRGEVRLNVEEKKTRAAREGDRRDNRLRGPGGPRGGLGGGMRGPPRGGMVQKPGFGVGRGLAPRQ
Technique: RNA Bind-n-Seq
Molecule type: RNA
Sample: in vitro
Concentration: 200 nM
Notes: whole 134-nt RNA, ends assumed
Together with: 150 mM LiCl
Relative to: input library
Reading: higher = stronger binding
Measurement: log2 enrichment
Library: 7-deaza-guanosine replaces G
Constant ends, left off below: GGGAGUUCUACAGUCCGACGAUC … UGGAAUUCUCGGGUGUCAAGG
Oligonucleotide = UGGCCCUGGUGGCAUGCGGGGAGGAAGAGGUGACCUCAUGGAUCGUGGUGGUCCCGGUGGAAUGUUCAGAGGUGGCCGUGGUGGAGACAG; value = 0.371
Oligonucleotide = AGUCCUGUGCUACACAUCGUAUGUACCGAAUCGGGGAGGGGUUUUUUUGGGGUGGGGAAAGUAUUAUGUUACGCCGUUCGGAUCUGCACU; value = 0.742
Oligonucleotide = UCCUGUGCUACACAUCGUAUGUACCGAAUCGGGGAAAGGGGUUUUUUUGGGGAAAGGGGAAAGUAUUAUGUUACGCCGUUCGGAUCUGCA; value = 0.269
Oligonucleotide = CUCAAGUCCUGUGCUACACAUCGUAUGUACCGAAUCGGGUGGGUGGGUUUGGGAAAGUAUUAUGUUACGCCGUUCGGAUCUGCACUUCCA; value = -0.465
Oligonucleotide = UCCUGUGCUACACAUCGUAUGUACCGAAUCAAACCCAAACCCCCCCAAAUUUUUUUAAAAAAGUAUUAUGUUACGCCGUUCGGAUCUGCA; value = 1.04
Oligonucleotide = GCAGGAAGUAAAAACAAAUGGAAAUGCUUCGGAUAGUGGCAGGGGUGGGGGUUGCUAAGGAAACGGUGGGAUGGGAGUGGGUAAAGAGUU; value = 0.0325
Oligonucleotide = UCCUAGUAUUCUGGCCGUUCAGAGAUCUGCAAUCCUCAAGAAGCAGCAACAGCAGCAGCAGCAACAACAACAUCAAGCCUCAUCUAAUAG; value = 1.24
Oligonucleotide = UCAAGUCCUGUGCUACACAUCGUAUGUACCGAAUCGGUUUUUUUGGUUUGGAGGAAAGUAUUAUGUUACGCCGUUCGGAUCUGCACUUCC; value = -0.547

Block 2
Target: PABPC1L2, full length, GST fusion (mouse, UniProt A0ABA7IW68)
Technique: RNAcompete
Molecule type: RNA
Sample: in vitro
Concentration: 20 nM
Notes: 7-mer, probes averaged, single round
Relative to: mean of 7-mers
Reading: higher = stronger binding
Measurement: 7-mer Z-score
Construct (chain): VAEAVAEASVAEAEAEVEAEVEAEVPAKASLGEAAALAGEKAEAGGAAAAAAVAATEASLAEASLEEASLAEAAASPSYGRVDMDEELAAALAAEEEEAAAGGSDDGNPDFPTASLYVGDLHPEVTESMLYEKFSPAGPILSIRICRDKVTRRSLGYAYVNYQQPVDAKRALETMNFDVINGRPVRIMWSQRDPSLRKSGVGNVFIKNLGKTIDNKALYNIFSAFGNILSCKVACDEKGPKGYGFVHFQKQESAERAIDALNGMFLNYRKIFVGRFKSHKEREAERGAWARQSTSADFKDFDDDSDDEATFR
Oligonucleotide = CGAUACA; value = 0.173
Oligonucleotide = GCAGCAA; value = 0.106
Oligonucleotide = GAACCCU; value = -0.282
Oligonucleotide = GAUAGAC; value = -0.184
Oligonucleotide = AGUCGGU; value = -0.0989
Oligonucleotide = GUUCCUG; value = -0.233
Oligonucleotide = CUGACCA; value = -0.188
Oligonucleotide = UUGGGAA; value = 0.229

Block 3
Target: ABI1, truncated, D143A, DHFR fusion (Arabidopsis thaliana)
Technique: DHFR PCA, deep sequencing
Sample: yeast
Notes: methotrexate growth selection, single substitutions
Together with: (+)-ABA 0.032 µM
Relative to: wild-type fitted maximum
Reading: higher = stronger binding
Measurement: relative binding score
Starting sequence: PYL1, truncated, DHFR fusion (Arabidopsis thaliana); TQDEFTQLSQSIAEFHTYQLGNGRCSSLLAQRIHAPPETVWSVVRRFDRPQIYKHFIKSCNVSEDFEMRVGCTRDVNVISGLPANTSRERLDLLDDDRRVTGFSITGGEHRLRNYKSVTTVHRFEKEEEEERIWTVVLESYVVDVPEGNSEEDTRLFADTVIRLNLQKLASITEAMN
Change = M68A; value = -3.4%
Change = R123E; value = 37.6%
Change = A170M; value = -2.89%
Change = V76S; value = -1.34%
Change = C60E; value = -1.14%
Change = H110P; value = 71.6%
Change = F56I; value = -0.595%
Change = T39P; value = 8.24%

Other studies, line by line
Starting sequence: viral docking peptide; KKAKRRLFTISDS
Change = R5A; target = CCNB1, cyclin fold, Cln2 fusion (human); assay = yeast growth competition, sequencing; system = yeast; setting = weak parent motif; scale = relative to: not given, higher = stronger binding; measurement = normalised enrichment score; value = 1.04

Excerpt of the above (block 2):
Oligonucleotide = CGAUACA; value = 0.173
Oligonucleotide = GCAGCAA; value = 0.106
